Results pooled from the literature.
A part holds a random share of what one study measured.

Block 1
Target: Sal-like protein 4, full length isoform B (SALL4, Homo sapiens, UniProt Q9UJQ4-2, residues 1-616)
Technique: universal PBM
Form: double-stranded DNA, one strand shown
Medium: in vitro
Concentration: not given
Setting: 8-mer, flanks averaged, mean of replicates
Direction: higher = stronger binding
Quantity: E-score
Residues (chain): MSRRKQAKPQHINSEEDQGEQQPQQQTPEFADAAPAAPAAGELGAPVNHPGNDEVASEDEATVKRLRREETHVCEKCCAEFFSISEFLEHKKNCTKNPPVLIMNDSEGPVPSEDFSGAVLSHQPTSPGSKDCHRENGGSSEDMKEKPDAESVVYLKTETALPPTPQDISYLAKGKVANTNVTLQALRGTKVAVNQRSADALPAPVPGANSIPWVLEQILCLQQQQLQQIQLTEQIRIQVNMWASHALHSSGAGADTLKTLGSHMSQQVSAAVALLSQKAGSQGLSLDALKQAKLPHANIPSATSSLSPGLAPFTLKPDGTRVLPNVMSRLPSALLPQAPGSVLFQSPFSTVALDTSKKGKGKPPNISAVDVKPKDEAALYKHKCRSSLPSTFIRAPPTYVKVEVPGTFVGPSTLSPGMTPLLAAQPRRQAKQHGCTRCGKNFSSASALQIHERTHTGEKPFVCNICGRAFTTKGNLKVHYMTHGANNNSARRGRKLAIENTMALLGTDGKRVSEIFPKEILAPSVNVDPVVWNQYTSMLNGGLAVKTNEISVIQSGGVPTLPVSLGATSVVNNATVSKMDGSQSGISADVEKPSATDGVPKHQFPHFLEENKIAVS
GATTGGGA: -0.109
GCGGCCAA: -0.249
GGGACTAC: -0.117
AGGCTTCC: -0.0459
TCAGATCA: 0.019
CCGCGTAC: -0.182
GACTAACA: 0.0648
CAGTGTTA: 0.0546
AGCGCAGG: -0.374
CTACCGTA: 0.0485
ACAGCGGC: -0.197
GAATTACC: 0.113
ATGTACAG: 0.137
GCGGTGAA: -0.138
GTAGCTGA: -0.153
ACGACTCA: -0.126
GCAAAAGC: 0.0711
AGGTCGCC: -0.258
GATAGGTA: 0.207
ATTTCTCC: 0.135
CCATGTCG: -0.212
ATTGAAGG: 0.111
CCCAAATC: 0.0179
GAGGAGAA: -0.062
AGTCCGCC: -0.208

Block 2
Target: RNA binding protein fox-1 homolog 2, RRM domain, GST-SBP tag (RBFOX2, Homo sapiens, UniProt O43251-10, residues 100-194)
Technique: RNA Bind-n-Seq
Form: RNA
Medium: in vitro
Concentration: 365 nM
Setting: natural RNA segment, single round, ends assumed
Baseline: no-protein control
Direction: higher = stronger binding
Quantity: RBNS enrichment (R)
Residues (chain): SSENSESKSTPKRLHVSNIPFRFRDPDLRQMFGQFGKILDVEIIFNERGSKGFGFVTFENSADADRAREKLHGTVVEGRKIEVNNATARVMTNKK
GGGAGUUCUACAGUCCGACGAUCUCUUAAACACUUCCCACUGCCAGAGUGAGAGUGGGAGUCAUGGCCUCCUGAAAACUUGGACUCUGCAUGGUGCCACCACCAACCAUUGAGUAGUCUGAGGUGCUAACAUCUGGAAUUCUCGGGUGCCAA: 0.452
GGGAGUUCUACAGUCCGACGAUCCUUGUUCAGUGUGAUGGAAUAACAAGAUGAAUUAUUGGUGAUUUUUCAUAAUCGAUGUGGUCUACUAAGAAAGAUAACAAUUUGUGCUAAAAUGCCCAUGUUUACCUGUAUGGAAUUCUCGGGUGCCAA: 0.801
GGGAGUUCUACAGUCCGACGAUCACUGGUAUUUGGAAUUUUUUUUCCUUUAAUCUUUGGUUUAAAAACAUCUUAAAAUCACUUAUAUACAAUCAUUAAAAGAGUGGUAAUUUUAUAAAUGCUUAUUUAUGUUAUGGAAUUCUCGGGUGCCAA: 0.479
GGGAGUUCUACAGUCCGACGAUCCAGUAGACACCCAGAAAUCGUGACUUCUGUGUUCUCUCCAUUUGAGUAUUUUGUAAUUUUUUUGAAAUAUUUGUGGACAUAAAUAAAACCAAGCUACACUACAACCCUUGUGGAAUUCUCGGGUGCCAA: 0.656
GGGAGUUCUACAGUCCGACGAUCUUGCUGGGAAUAGACAACCUCAGUGCUGAACUGUACUGGAGAAAAGGGGCAAGGUACCCGCUGAGGUGUGUGGGCUGACUGGAGGUCCUGGAUCCCCCUACUGCUCCCAGUGGAAUUCUCGGGUGCCAA: 0.407
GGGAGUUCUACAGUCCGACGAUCGACCCGGCCUUUCAAUGAGCUUAGCUUGUGCUCUGUUUCUGCUCUCUUAGGUCUAAACUAUGGUGUCAGUUUUAAUAGAACAAAAGUAUGCAUCUUGCCUUGGCUUGAGCUGGAAUUCUCGGGUGCCAA: 2.35
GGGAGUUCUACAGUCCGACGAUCGUGUGAUCCUCCUUGAGCAUUGAGGAGGCACAUGGAGAACUAAAUCUUUUGUAGUAGCUGAGAUCUGCAAUAUAUAACGGGACAGUCAAAGGGCAAUGUUUUUCUGUAACUGGAAUUCUCGGGUGCCAA: 0.685
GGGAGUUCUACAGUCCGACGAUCGAAUUUCAGAGAUUCUUAGACUGGCUGCCAAAGGAUGAAGCUAGUGAAGGAGAAAAAGCUUAAAUUCCAUCUUGAGCUCUUGGAUUGUGAUAAUACAAUGAUUUCAUUAAUGGAAUUCUCGGGUGCCAA: 0.724
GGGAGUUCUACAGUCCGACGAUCGAGUGCUUUCUGUUUUUGUCAGAAAUGACCUUUCCUAUUAGAAAAUGCCCUGUCUGCUUGUCACCCUCUGAAUCUUCUUGAGCUACAGGUAGUGUUUUCAGUACCAUCAUUGGAAUUCUCGGGUGCCAA: 0.268

Block 3
Target: RING finger protein unkempt homolog, zinc fingers 1-6, GST-SBP tag (UNK, Homo sapiens, UniProt Q9C0B0, residues 30-357)
Technique: RNA Bind-n-Seq
Form: RNA
Medium: in vitro
Concentration: not given
Setting: RNA with constant flanks, human and mouse sites, ends assumed
Baseline: input RNA pool
Direction: higher = stronger binding
Quantity: bound/input enrichment
Construct (chain): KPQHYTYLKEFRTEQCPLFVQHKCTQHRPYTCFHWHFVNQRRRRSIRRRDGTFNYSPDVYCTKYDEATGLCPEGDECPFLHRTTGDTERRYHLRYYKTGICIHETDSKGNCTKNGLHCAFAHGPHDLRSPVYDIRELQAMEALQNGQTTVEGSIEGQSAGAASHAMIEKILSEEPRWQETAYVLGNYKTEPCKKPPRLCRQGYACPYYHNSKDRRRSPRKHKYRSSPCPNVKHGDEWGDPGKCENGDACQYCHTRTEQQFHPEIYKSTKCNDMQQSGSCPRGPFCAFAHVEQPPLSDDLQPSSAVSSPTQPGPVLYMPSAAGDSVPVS
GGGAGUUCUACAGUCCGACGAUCCAGGCCGACUACGUGCCAAGUGACCAGGACCUGCUUCGCUGCCGUGUCCUGACCUCUGGAAUCUUUGAGACCAAGUUCCAGGUGGACAAAGUCAACUUCCACAUGUUCGAUGUGGGCGGCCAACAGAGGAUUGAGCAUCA: 0.0669 ratio
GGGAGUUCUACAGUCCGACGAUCUUUCCAAAGCAGCCAGGGACAUCAGGCGCUUACCCUCUUACUUCACCCCCUACAUCCUAUCACAGCACAGUUAAUCAGUCCCCCUCUAUGAUGCACACACAGUCUCCAGGAAAUCUGCAUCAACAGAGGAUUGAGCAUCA: 0.537 ratio
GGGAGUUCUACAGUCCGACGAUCCUGUUUUGGAACAACACAUUUUUGUAAUGCUUGUCAUGAUGAUUUUCAAAGAAUGACUAGCAUUCCUAAGGAAGAACUACCACACUGUCCUGCAGGUCCCAAAGGCAAGCAGUUAGAAGGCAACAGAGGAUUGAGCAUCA: 0.451 ratio
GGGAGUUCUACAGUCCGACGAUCUUUUGCAAUGUAGAUGAUGAUGAAUUAAGAGAGUACUGUAUUCAAGCCUUUGAAUCAUUUGUAAGAAGAUGUCCUAAGGAAGUAUAUCCUCAUGUUUCUACCAUUAUAAAUAUUUGUCUUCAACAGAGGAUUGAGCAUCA: 0.34 ratio
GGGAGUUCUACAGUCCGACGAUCGAUACCGACGGGGGUUUUGUGCACUCGGACGGUGCCAUCUCCUGCCACGACAUGUUUGAUUUUCUGCAUCUGACAGGAGGGGGCUAUGCAAAGAUCUGCAAACCCCUGCAUGAACUGAUCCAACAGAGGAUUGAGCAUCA: 0.0342 ratio
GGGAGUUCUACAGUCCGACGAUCGGGACACAUACUGUAGUAUACUAGUGGGUGGGAGGCAUGGGGGUUAAGAUUGUAUAAACCAUAGAUCCUGUGUAAGUUAGAGUUGUUGCUUACAUUUCAUAUAGAGUCUCACUAUUCAUACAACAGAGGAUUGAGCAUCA: 3.08 ratio
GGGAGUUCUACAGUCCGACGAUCCCAGGCUGGAGUCAUUUACAAGUUUCUCCACGUAGAUUGUAGUCAGGUUUCUCCCAGACCUUAGGCGUUUGUAUUUUUUUUUUUAAUUUUAAUUUCACUGUUACCCUUGACUAUUGUCCUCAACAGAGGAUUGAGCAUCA: 451 ratio
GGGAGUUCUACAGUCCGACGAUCCAAUAUAUAUCUCCAUUUCAUGAUAUUCCAAUUUAUGCAGAUAAGGAUGUGUUUCACAUGGUAGUUGAAGUACCACGCUGGUCUAAUGCAAAAAUGGAGAUUGCUACAAAGGACCCUUUACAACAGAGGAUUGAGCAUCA: 0.166 ratio
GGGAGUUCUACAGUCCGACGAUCACUAACAAAAGUGCCUCAUGAUAAAAGUACAUUUGAUUUUUAGGGUGCCAUAUUGUUAAAAUUAGAAAAUUGAAUAAAUGAAUGCAUUUUAUCAGUAACAAGUUUCCUUCCAUUUACCAGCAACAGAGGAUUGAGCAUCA: 3.45 ratio
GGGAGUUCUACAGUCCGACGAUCGAUGAGCAACGGCAGCCUUUAACAGUUGAGCACAUGUAUGAAGACAUCAGUCAAGAUCAUGUGAAGAAAACAGUGACCAUUGAAAACCAUCCUCAUCUCCCACCACCUCCUAUGUGUUCACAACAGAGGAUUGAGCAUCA: 0.141 ratio
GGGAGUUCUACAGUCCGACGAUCUUAAUCAUAAUCAUGUUCAUGGACAUAAAUAUUUCAUUGCAAGUCACUCACUUCUAGAAUUUGAUGUUACGUCAUAUCACAUUUUAUAAACCUAUGUUAAGCUUAUGUAUAUGUUAUUACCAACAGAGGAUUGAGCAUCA: 1.13 ratio

Block 4
Target: Histone acetyltransferase KAT6A, winged helix 1, GST fusion (KAT6A, Homo sapiens, UniProt Q92794, residues 1-85)
Technique: protein binding microarray
Form: double-stranded DNA, one strand shown
Medium: in vitro
Concentration: not given
Setting: 8-mer, flanks averaged, mean of 2 arrays, mostly near background
Baseline: not given
Direction: higher = stronger binding
Quantity: E-score
Target sequence (chain): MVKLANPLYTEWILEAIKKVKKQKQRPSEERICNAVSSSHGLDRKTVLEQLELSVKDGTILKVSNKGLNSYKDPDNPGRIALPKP
AAGCCCGG: 0.18
ATTACAGC: 0.0743
AAGACGTA: -0.196
GTGAACGA: -0.214
CCACACTA: -0.0558
ATCTGTAA: -0.0433
AGATTGAG: -0.143
GTAGATAA: 0.0601
AACTCTTC: -0.172
ATCTAGAC: -0.0773
ACGCGTTC: 0.345
CTGGTCTC: -0.257
AATTACAA: -0.168
ACTTCGGC: 0.138
CAAAACAG: -0.111
AATAGACC: -0.0141
ACCTGCAC: -0.112
GAATAGCA: -0.291
ACCACGAC: -0.136
GACGATTA: 0.0641
CCTGCACC: -0.116
CCCGAGTA: 0.21
CTGACTGC: -0.0288
ATAACGAT: -0.142
CCAGGCGA: -0.201

Repeated from above (block 4):
CCCGAGTA: 0.21
AAGACGTA: -0.196
ACTTCGGC: 0.138
AATTACAA: -0.168
ACGCGTTC: 0.345
AATAGACC: -0.0141
ATAACGAT: -0.142
